{"data": "Assay results of several laboratories", "note": "Each line is one published result; not all experiments were run side by side. Several values in a cell are separate wells, animals, samples, runs or records."}
{"Compound": "O=C(NS(=O)(=O)c1cccs1)c1cc2ccccc2n1Cc1ccc(Br)c2ccccc12", "test system": "Sprague-Dawley rat, male", "setting": "oral, 2 mg/kg, 24 h", "quantity": "plasma concentration", "result": "3.88 ng/mL and 3.31 ng/mL"}
{"Compound": "C=C[C@]1(C)C[C@@H](OC(=O)CSc2ccc(NC(=O)c3ccco3)cc2)[C@]2(C)[C@H](C)CC[C@]3(CCC(=O)[C@H]32)[C@@H](C)[C@@H]1O", "test system": "Mycoplasma gallisepticum-infected chickens, plasma", "setting": "intramuscular, 5 mg/kg, 1 h", "quantity": "plasma concentration", "result": "309 ng/mL and 344 ng/mL and 256 ng/mL and 378 ng/mL and 328 ng/mL and 338 ng/mL and 374 ng/mL and 382 ng/mL"}
{"Compound": "CCC(=O)N(C)c1ccc(Cl)c(Cl)c1", "assay": "LC-MS/MS", "test system": "mouse C57BL/6 female, plasma", "setting": "subcutaneous, 2 mg/kg, 1 h", "quantity": "plasma concentration", "result": "14.6 ng/mL and 89.2 ng/mL and 147 ng/mL"}
{"Compound": "Cc1noc(C)c1Cn1cc(N2C(=O)CN(Cc3cccc(OS(=O)(=O)O)c3)C2=O)cn1", "test system": "Sprague-Dawley rat, male", "setting": "oral, 30 mg/kg of parent drug, 0.5 h", "quantity": "plasma concentration", "result": "4620 ng/mL"}
{"Compound": "C=C(NC(=O)c1csc(-c2nc3c(cc2O)-c2nc(cs2)C(=O)NC(C(C)O)C(=O)NC(=C(C)OC)c2nc(cs2)C(=O)NC2c4nc(cs4)C(=O)NC(COC(=O)c4c5c6c(cccc6n4O)COC(=O)C(OC4CC(C)(O)C(N(C)C)C(C)O4)C2OC5)c2nc-3cs2)n1)C(N)=O (stereo not drawn)", "test system": "Sprague-Dawley rats, both sexes, plasma", "setting": "intravenous infusion, 18 mg/kg", "quantity": "AUC(0-inf)", "result": "5570 ng·h/mL"}
{"Compound": "Cc1ncsc1-c1ccc(C(C)NC(=O)C2CC(O)CN2C(=O)C(NC(=O)CCCCCCCCCCN2CCCC(Nc3ncc(Cl)c(Nc4ccccc4S(=O)(=O)C(C)C)n3)C2)C(C)(C)C)cc1 (stereo not drawn)", "target or system": "22Rv1", "assay": "RNA-seq, item: RAB36 mRNA", "setting": "concentration not given", "how to read": "baseline: DMSO", "quantity": "log2 fold change", "result": -2.04}
{"Compound": "Cc1noc(C)c1Cn1cc(N2C(=O)CN(Cc3cccc(O[C@@H]4O[C@H](C(=O)O)[C@@H](O)[C@H](O)[C@H]4O)c3)C2=O)cn1", "test system": "Sprague-Dawley rat, male", "setting": "oral, 100 mg/kg of parent drug, 0.5 h", "quantity": "plasma concentration", "result": "9090 ng/mL"}
{"Compound": "C[C@]12C[C@H](c3ccc(S(C)(=O)=O)cc3)C3=C4CCC(=O)C=C4CC[C@H]3[C@@H]1CC[C@@]2(O)C(F)(F)C(F)(F)F", "assay": "item: compound (parent)", "test system": "healthy human volunteers, pooled plasma", "setting": "oral, 5 mg daily, day 28, 4 h", "quantity": "plasma concentration", "result": "23.5 ng/mL"}
{"Compound": "Cc1nn(-c2nc3c(F)cc(F)cc3s2)c(O)c1C(c1ccc(C(F)(F)F)cc1)c1c(C)nn(-c2nc3c(F)cc(F)cc3s2)c1O", "test system": "ICR mouse", "setting": "intraperitoneal, 10 mg/kg, 0.75 h", "quantity": "plasma concentration", "result": "2640 ng/mL and 4320 ng/mL and 2170 ng/mL"}
{"Compound": "Nc1ncc(-c2cc(-c3cnn(CC(F)(F)F)c3)ncc2F)nc1C(=O)NC1CNCC(F)C1 (stereo not drawn)", "target or system": "MARK3", "assay": "KINOMEscan", "setting": "1 µM", "how to read": "baseline: DMSO control", "quantity": "remaining binding", "result": "100%"}
{"Compound": "COC1CN([C@H]2CC[C@H]([C@@]3(C)Oc4c(Cl)cc(C(=O)NCc5c(SC)cc(C)[nH]c5=O)c(C)c4O3)CC2)C1", "assay": "RNA-seq, item: PROX1", "test system": "human, whole blood", "setting": "dose not given, 24 h", "how to read": "baseline: pretreatment baseline", "quantity": "log2 fold change", "result": 2.4}
{"Compound": "Cc1ncsc1-c1ccc(CNC(=O)[C@@H]2C[C@@H](O)CN2C(=O)[C@@H](NC(=O)COCC(C)(COCCOCCOCCNC(=O)C[C@@H]2N=C(c3ccc(Cl)cc3)c3c(sc(C)c3C)-n3c(C)nnc32)COCCOCCOCCNC(=O)C[C@@H]2N=C(c3ccc(Cl)cc3)c3c(sc(C)c3C)-n3c(C)nnc32)C(C)(C)C)cc1", "assay": "LC-MS/MS", "test system": "male C57BL/6 mice, plasma", "setting": "intravenous, 5 mg/kg, 15 min", "quantity": "plasma concentration", "result": "15800 ng/mL and 16500 ng/mL"}
{"note": "Excerpt of the above:"}
{"Compound": "C=C(NC(=O)c1csc(-c2nc3c(cc2O)-c2nc(cs2)C(=O)NC(C(C)O)C(=O)NC(=C(C)OC)c2nc(cs2)C(=O)NC2c4nc(cs4)C(=O)NC(COC(=O)c4c5c6c(cccc6n4O)COC(=O)C(OC4CC(C)(O)C(N(C)C)C(C)O4)C2OC5)c2nc-3cs2)n1)C(N)=O (stereo not drawn)", "test system": "Sprague-Dawley rats, both sexes, plasma", "setting": "intravenous infusion, 18 mg/kg", "quantity": "AUC(0-inf)", "result": "5570 ng·h/mL"}
